Published values gathered from unrelated publications.
Numbered parts are unrelated; each lists some results of a single study. “And” joins repeats or separate records; there may be more than shown.

Series 1 — observed: enzyme activity; mode: inhibitor; tested at: 77 µM; reference: untreated
Target: DNA polymerase theta, ATPase domain (POLQ, Homo sapiens, UniProt O75417)
Sequence of UniProt O75417 (whole entry, unmodified, looked up): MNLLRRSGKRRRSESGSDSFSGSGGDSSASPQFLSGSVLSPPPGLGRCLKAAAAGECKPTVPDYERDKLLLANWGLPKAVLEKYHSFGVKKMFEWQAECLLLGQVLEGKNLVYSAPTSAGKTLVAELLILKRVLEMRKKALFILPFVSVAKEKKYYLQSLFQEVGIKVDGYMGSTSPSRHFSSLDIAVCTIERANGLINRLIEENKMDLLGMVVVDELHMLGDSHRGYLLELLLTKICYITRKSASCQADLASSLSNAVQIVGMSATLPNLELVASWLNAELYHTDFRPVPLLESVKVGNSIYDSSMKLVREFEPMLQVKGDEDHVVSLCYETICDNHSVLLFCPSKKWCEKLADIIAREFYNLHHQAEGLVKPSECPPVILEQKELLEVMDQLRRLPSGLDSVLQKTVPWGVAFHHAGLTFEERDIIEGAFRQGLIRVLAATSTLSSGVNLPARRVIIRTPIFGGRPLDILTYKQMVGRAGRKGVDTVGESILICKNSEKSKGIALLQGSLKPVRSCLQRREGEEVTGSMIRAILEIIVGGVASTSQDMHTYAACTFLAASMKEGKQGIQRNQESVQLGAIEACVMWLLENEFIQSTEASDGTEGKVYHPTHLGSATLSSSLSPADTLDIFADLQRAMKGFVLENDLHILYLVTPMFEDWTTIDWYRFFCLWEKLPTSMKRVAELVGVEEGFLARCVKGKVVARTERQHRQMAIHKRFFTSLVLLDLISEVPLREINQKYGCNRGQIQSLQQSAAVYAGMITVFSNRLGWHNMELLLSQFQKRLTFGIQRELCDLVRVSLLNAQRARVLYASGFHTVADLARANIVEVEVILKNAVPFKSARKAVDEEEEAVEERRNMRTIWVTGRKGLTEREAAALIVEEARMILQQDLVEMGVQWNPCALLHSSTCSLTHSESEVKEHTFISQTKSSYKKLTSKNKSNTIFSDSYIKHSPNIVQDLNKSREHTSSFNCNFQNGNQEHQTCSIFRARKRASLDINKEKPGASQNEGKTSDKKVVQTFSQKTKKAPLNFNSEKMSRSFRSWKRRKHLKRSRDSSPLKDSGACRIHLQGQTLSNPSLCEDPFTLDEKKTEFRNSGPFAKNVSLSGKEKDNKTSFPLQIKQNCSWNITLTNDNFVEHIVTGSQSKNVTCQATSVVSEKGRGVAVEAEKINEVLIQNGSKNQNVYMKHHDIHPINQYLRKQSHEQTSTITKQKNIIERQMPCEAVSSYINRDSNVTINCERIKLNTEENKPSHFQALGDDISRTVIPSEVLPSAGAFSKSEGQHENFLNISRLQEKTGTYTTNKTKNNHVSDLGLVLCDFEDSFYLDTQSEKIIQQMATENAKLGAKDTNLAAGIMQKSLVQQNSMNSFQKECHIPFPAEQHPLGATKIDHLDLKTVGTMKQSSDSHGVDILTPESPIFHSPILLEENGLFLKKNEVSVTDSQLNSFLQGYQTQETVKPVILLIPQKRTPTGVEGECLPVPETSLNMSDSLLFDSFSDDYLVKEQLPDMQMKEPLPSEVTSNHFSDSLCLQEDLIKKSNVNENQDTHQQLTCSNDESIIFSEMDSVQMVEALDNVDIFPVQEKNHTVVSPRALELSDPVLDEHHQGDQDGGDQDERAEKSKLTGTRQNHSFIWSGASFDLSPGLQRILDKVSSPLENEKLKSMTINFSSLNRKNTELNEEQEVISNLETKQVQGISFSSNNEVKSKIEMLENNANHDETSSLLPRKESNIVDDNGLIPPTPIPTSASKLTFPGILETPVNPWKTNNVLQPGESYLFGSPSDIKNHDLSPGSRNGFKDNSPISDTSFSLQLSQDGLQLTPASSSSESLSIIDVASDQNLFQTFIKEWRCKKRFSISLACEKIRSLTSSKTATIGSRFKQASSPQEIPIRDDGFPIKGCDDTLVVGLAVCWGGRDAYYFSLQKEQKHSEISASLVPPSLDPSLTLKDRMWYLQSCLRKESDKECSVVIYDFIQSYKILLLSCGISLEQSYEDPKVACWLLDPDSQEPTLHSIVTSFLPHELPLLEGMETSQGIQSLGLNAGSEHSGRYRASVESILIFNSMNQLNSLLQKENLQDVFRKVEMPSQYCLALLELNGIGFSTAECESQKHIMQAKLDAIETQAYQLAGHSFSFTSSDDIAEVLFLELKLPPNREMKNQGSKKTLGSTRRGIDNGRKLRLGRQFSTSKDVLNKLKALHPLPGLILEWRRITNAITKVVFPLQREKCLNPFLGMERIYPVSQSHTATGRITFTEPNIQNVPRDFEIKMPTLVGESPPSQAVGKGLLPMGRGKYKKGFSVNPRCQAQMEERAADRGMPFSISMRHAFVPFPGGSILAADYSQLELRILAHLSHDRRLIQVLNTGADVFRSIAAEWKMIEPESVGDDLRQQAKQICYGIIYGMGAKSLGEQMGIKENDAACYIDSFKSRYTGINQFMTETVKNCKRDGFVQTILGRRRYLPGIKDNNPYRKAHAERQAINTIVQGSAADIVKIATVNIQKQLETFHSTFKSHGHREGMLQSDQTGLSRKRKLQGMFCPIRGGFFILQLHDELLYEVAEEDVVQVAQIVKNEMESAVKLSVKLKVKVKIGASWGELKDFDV
`C[C@]12CC[C@H]3[C@@H](CC[C@@]45O[C@@H]4C(O)=C(C#N)C[C@]35C)[C@@H]1CC[C@@H]2O` has a remaining activity of 90.8%.
For `C[C@]12CC[C@H](O)C[C@H]1CC[C@@H]1[C@@H]2CC[C@]2(C)[C@@H](C3=CC(=O)OC3)CC[C@]12O`, the remaining activity was 102%.
`CNC[C@@H](O)c1ccc(O)cc1` (racemic) gave a remaining activity of 100%.
With `NCCCP(=O)(O)O` the remaining activity was 95.8%.
With `C[C@H]1CCC/C=C/[C@@H]2C[C@H](O)C[C@H]2[C@H](O)/C=C/C(=O)O1` the remaining activity was 98.3%.
`O=C(CCCN1CCC(n2c(=O)[nH]c3ccccc32)CC1)c1ccc(F)cc1` gave a remaining activity of 104%.
For `NNC(N)=O`, the remaining activity was 99.5%.
The remaining activity of `O=c1c2ccccc2[se]n1-c1ccccc1` is reported as 101%.

Series 2 — organism: Sarcocystis neurona; observed: parasite activity; tested at: 10 µM; time: 96 h
`C[C@]12CCC(=O)C=C1CC[C@@H]1[C@@H]2CC[C@@]2(C)[C@H]1CC[C@]2(C)O` — result for activity class: “inactive”.
`O=C1CN=C(c2ccccc2)c2cc([N+](=O)[O-])ccc2N1` — result for activity class: “inactive”.
Under activity class, `CC(C)N(CCC(C(N)=O)(c1ccccc1)c1ccccn1)C(C)C` (stereo not drawn) is recorded as “inactive”.
Under activity class, `Cc1ncc2n1-c1ccc(Cl)cc1C(c1ccccc1F)=NC2` is recorded as “inactive”.
Under activity class, `c1ccc2c3c([nH]c2c1)CNCC3` is recorded as “inactive”.
Under activity class, `CC(NC(C)(C)C)C(=O)c1cccc(Cl)c1` (stereo not drawn) is recorded as “inactive”.
`CCCC(C)(COC(N)=O)COC(=O)NC(C)C` (stereo not drawn): activity class “inactive”.
`C=C1C[C@@H]2[C@H](CC[C@]3(C)C(=O)CC[C@@H]23)[C@@]2(C)C=CC(=O)C=C12`: activity class “inactive”.
`CCN(C(C)=O)c1cccc(-c2ccnc3c(C#N)cnn23)c1`: activity class “inactive”.

Series 3 — observed: enzyme activity; mode: inhibitor; tested at: 10 µM
Target: Calcium/calmodulin-dependent protein kinase type II subunit alpha (CAMK2A, Homo sapiens, UniProt Q9UQM7)
Sequence of UniProt Q9UQM7 (whole entry, looked up): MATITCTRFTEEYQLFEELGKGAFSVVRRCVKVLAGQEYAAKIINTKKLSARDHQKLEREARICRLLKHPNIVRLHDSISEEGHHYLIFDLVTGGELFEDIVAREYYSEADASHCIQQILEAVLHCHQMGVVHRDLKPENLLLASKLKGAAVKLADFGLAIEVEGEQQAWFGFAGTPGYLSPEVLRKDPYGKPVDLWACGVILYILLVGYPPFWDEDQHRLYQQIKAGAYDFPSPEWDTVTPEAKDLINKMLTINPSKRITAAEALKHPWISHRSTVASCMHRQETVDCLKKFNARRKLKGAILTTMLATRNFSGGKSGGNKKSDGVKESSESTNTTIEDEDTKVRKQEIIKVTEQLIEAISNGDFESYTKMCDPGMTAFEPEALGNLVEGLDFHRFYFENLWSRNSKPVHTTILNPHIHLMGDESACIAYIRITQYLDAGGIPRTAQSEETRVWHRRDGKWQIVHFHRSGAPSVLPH
With `O=c1ccc2c(O)c3ccoc3cc2o1` the inhibition was 20%.
For `COC(=O)[C@@]12OC[C@]34[C@H]([C@@H](O)[C@@H]1O)[C@@]1(C)CC(=O)C(O)=C(C)[C@@H]1C[C@H]3OC(=O)[C@H](OC(=O)/C=C(\C)C(C)C)[C@@H]24`, the inhibition was 15%.
For `O=C(O)CC[N+](=O)[O-]`, the inhibition was -43%.
For `C=C[C@@]12CN(C)[C@H]3C[C@]14C(=Nc1ccccc14)[C@@H]1C[C@@H]2[C@@H]3CO1`, the inhibition was -3%.
With `C=C1[C@H](OC(=O)c2ccccc2)C[C@H]2[C@@H](/C=C(\C)C(=O)[C@@]3(OC(C)=O)C[C@H](C)[C@H](OC(=O)c4ccccc4)[C@@H]3[C@H]1OC(C)=O)C2(C)C` the inhibition was 11%.
`O=c1[nH]c2ccccc2n1C1CCN(CCCC(c2ccc(F)cc2)c2ccc(F)cc2)CC1` gave an inhibition of 13%.

Series 4 — cell line: mouse MPNST tumor cells; method: high-content nuclear imaging; item: cell number; tested at: 10 µM; time: 12 h; setting: mean of 2 replicates; reference: plate mean; reading: higher = more cells
For `C[C@]12CC[C@H]3[C@@H](CC[C@@]45O[C@@H]4C(O)=C(C#N)C[C@]35C)[C@@H]1CC[C@@H]2O`, the nuclei count was -0.764 z-score.
`S=C(NC1CCCCC1)N1CCC(c2cnc[nH]2)CC1` has a nuclei count of 1.46 z-score and 1.34 z-score.
`Cc1cccc(NC(=O)N[C@@H]2N=C(c3ccccc3)c3ccccc3N(CC(=O)c3ccccc3C)C2=O)c1` gave a nuclei count of 2.05 z-score.
For `CN1[C@@H]2CC[C@H]1C[C@@H](OC1c3ccccc3CCc3ccccc31)C2`, the nuclei count was -4.12 z-score.

Series 5 — observed: binding; method: radioligand binding; tested at: 10 µM
Target: D(1B) dopamine receptor (DRD5, Homo sapiens, UniProt P21918)
Sequence of UniProt P21918 (whole entry, looked up): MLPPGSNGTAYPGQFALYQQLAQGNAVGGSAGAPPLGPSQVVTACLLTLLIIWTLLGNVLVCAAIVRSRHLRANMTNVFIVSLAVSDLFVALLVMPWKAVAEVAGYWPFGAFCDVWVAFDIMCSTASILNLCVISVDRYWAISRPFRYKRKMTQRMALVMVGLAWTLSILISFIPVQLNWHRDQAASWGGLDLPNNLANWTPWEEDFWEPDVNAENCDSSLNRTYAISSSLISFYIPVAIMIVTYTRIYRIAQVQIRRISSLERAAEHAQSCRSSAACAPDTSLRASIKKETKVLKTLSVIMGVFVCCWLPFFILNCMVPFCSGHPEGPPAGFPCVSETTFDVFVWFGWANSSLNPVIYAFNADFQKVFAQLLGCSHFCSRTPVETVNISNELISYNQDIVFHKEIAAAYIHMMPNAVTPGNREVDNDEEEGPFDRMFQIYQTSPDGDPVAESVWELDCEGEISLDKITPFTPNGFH
`O=C(Nc1cnc(Oc2ccc(F)cc2)nc1)N1CCc2ncccc2[C@@H]1c1ccc(F)cc1` has an inhibition of 10.1%.
For `CC(C)(O)c1cncc(-c2nc3ccc(F)cc3n2C2CC2)c1`, the inhibition was 21%.
`O=C([C@H]1C[C@H](O)CN1c1ccc(Cl)cc1)N1CC2COCC(C1)N2Cc1ccc(Cl)cc1` has an inhibition of 6.84%.
`CCOC(=O)c1cc2cc(-c3cc(C(=O)NCc4ccc(C(=O)O)cc4)nn3C)ccc2[nH]1` gave an inhibition of 59.6%.
With `CCCOc1ccc([C@H]2[C@H](C(=O)O)[C@@H](c3ccc4c(c3)OCO4)CN2CC(=O)Nc2c(CC)cccc2CC)cc1` the inhibition was 11%.
`CN1C(=O)[C@@H](N2CCc3cn(Cc4ccccc4)nc3C2=O)COc2ccccc21` has an inhibition of 1.77%.
`CC1=C(C#N)C(c2ccc3c(c2)c(NC(=O)c2ccccc2C)nn3C)C(C#N)=C(C)N1` has an inhibition of 14.6%.
`O=C(Nc1cccnn1)N1CC(CC=Cc2cncc(Oc3ccc(C(F)(F)F)cn3)n2)C1` gave an inhibition of 4.5%.
`Cc1nccc(COC(=O)N2C[C@@H]3[C@@H](CNC(=O)c4ccc5[nH]nnc5c4)[C@@H]3C2)n1` has an inhibition of 16.4%.
For `Cc1c[nH]c2nccc(Oc3c(F)cc(Nc4cc(Cl)nc(N)n4)cc3F)c12`, the inhibition was 21.9%.
With `CNC(=O)c1cc(C(=O)NC2CC2)cn(Cc2ccccc2)c1=O` the inhibition was 18.6%.
`Cc1nc(C2CCN(C(=O)c3ccc(OC(F)(F)F)cc3N)CC2)c2ncc(N3CCN(C)CC3)cc2n1` gave an inhibition of 12.4%.
For `CC(=O)Nc1c(F)cc(C(=O)N[C@H]2CC[C@H](O)CC2)cc1O[C@@H](C)c1ccccc1`, the inhibition was 21.4%.
For `O[C@]1(C(F)(F)F)CCCC[C@H]1Nc1ccc(F)cc1`, the inhibition was 30.2%.
With `CC(=O)Nc1nc(CN2CCC[C@H](Cc3cc(C)nc(C)c3)C2)cs1` the inhibition was -30.4%.
For `CNC(=O)Nc1ccc2c(c1)[C@]1(CC2)OC(=O)N(CC(=O)N(Cc2ccc(F)cc2)[C@@H](C)C(F)(F)F)C1=O`, the inhibition was 20.5%.
`CN1CCN(C(=O)C(C)(C)c2ccc(C(=O)Nc3cn4cc(-c5ccncc5)ccc4n3)cc2)CC1` has an inhibition of -7.3%.
The inhibition of `CN(C)C(=O)Cn1cc(-c2nc([C@@](C)(c3ccc(-c4cnc(N)nc4)cc3)C3CC3)no2)cn1` is reported as 9.24%.
`Nc1c(C(=O)NCc2ccc(C(=O)NCCCC3CCCCC3)cc2)cnn1-c1ccccc1` gave an inhibition of 28.4%.
`CC(C)CC(=O)N1CCc2nc(-c3ccc(Br)cc3)nc(N(C)Cc3ccccc3)c2C1` has an inhibition of 19.4%.

Other studies, line by line
The viability of `CC(C)(C)c1cnc(CSc2cnc(NC(=O)C3CCN(CCCCCSc4cccc5c4CN(C4CCC(=O)NC4=O)C5=O)CC3)s2)o1` (stereo not drawn) is reported as 90.1% and 92.2% and 94.8% (HEK293T; trypan blue exclusion; 500 nM, 24 h).

For quick reference, copied from above (series 3):
For `COC(=O)[C@@]12OC[C@]34[C@H]([C@@H](O)[C@@H]1O)[C@@]1(C)CC(=O)C(O)=C(C)[C@@H]1C[C@H]3OC(=O)[C@H](OC(=O)/C=C(\C)C(C)C)[C@@H]24`, the inhibition was 15%.
With `O=c1ccc2c(O)c3ccoc3cc2o1` the inhibition was 20%.
`O=c1[nH]c2ccccc2n1C1CCN(CCCC(c2ccc(F)cc2)c2ccc(F)cc2)CC1` gave an inhibition of 13%.
For `O=C(O)CC[N+](=O)[O-]`, the inhibition was -43%.
With `C=C1[C@H](OC(=O)c2ccccc2)C[C@H]2[C@@H](/C=C(\C)C(=O)[C@@]3(OC(C)=O)C[C@H](C)[C@H](OC(=O)c4ccccc4)[C@@H]3[C@H]1OC(C)=O)C2(C)C` the inhibition was 11%.
